Assay results from different studies.
Each line is one published result; not all experiments were run side by side. ± gives the spread as reported.
CYP2C8: Cytochrome P450 2C8 (CYP2C8, Homo sapiens, UniProt P10632)
Sequence of UniProt P10632 (whole entry, looked up): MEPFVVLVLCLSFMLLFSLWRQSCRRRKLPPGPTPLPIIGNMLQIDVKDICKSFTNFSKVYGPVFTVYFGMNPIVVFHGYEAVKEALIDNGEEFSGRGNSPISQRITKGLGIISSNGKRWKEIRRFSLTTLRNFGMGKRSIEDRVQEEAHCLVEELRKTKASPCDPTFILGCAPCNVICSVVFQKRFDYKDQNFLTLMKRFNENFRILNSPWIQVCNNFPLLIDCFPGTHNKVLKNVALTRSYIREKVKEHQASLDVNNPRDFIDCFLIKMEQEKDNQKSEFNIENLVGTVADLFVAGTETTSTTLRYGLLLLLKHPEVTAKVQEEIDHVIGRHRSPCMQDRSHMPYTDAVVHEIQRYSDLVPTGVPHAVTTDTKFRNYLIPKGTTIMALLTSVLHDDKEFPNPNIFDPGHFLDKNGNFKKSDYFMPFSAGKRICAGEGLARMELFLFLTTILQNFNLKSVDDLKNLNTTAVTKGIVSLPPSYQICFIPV
UCHL1: Ubiquitin carboxyl-terminal hydrolase isozyme L1 (UCHL1, Homo sapiens, UniProt P09936)
Sequence of UniProt P09936 (whole entry, looked up): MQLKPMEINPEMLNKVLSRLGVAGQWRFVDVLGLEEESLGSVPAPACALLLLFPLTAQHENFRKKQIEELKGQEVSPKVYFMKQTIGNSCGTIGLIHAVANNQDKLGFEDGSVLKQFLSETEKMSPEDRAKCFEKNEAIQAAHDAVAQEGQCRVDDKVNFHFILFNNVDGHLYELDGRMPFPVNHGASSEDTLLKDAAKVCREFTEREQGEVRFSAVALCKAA

| SMILES | target or system | assay | test system | conditions | how to read | quantity | result |
| --- | --- | --- | --- | --- | --- | --- | --- |
| CC(C)[C@H](NC(=O)[C@H](Cc1ccc(O)cc1)NC(=O)[C@H](Cc1ccc(O)cc1)NC(=O)[C@@H]1CCCN1C(=O)[C@H](CCC(=O)O)NC(=O)[C@H](CCC(=O)O)NC(=O)[C@H](Cc1c[nH]c2ccccc12)NC(=O)[C@@H]1CCCN1C(=O)[C@@H](NC(=O)[C@H](CCC(N)=O)NC(=O)c1ccc2c(c1)C(=O)OC21c2ccc(O)cc2Oc2cc(O)ccc21)C(C)C)C(=O)N[C@H](C(=O)N[C@@H](CCCCN)C(=O)N[C@@H](CCCCN)C(=O)N[C@@H](CO)C(=O)N[C@@H](CO)C(=O)NCC(=O)NCC(N)=O)C(C)C | – | refers to: total compound | human, plasma | intravenous infusion, 500 mg, 2 h | – | plasma concentration | 587 ng/mL |
| C=CC(=O)Nc1cc(Nc2nccc(-c3cn(C)c4ccccc34)n2)c(OCC(F)(F)F)nc1N(C)CCNC | CYP2C8 | substrate depletion | recombinant human CYP | 1 µM | – | intrinsic clearance | 0.3 µL/min/pmol |
| Cc1cc(Nc2ncnc3ccc(NC4=NC(C)(C)CO4)cc23)ccc1Oc1ccn2ncnc2c1 | CYP2C8 | substrate | human, plasma | oral, 300 mg single dose, day 1 | – | geometric mean Cmax | 410 ng/mL |
| N#C[C@H](C[C@@H]1CCCNC1=O)NC(=O)[C@H](CC1CC1)NC(=O)c1cc2cccc(Cl)c2[nH]1 | CYP2C8 | NADPH metabolic stability | – | 2 µM, pH 7.4 | – | half-life | 47.4 s |
| CC(C)=CCc1c(O)cc2c(c1O)C(=O)C[C@@H](c1ccc(O)cc1)O2 | CYP2C8 | – | – | 1 µM, pH 7.4 | – | inhibition | < 10% |
| N#CC(=Cc1ccc([N+](=O)[O-])c(Cl)c1)C(=O)NC1CCCCC1 | UCHL1 | covalent, intact protein LC-MS | – | 12.5 µM | – | labelling | 16.7% |
| COc1cc(O)c(CC=C(C)C)c(O)c1C(=O)/C=C/c1ccc(O)cc1 | CYP2C8 | enzyme activity, inhibitor | human liver microsomes | 10 µM, pH 7.4, together with: amodiaquine | – | inhibition | 92.9 ± 0.4% |
| C[C@@H](c1ccc2nccn2c1)n1nnc2ncc(-c3cnn(C)c3)nc21 | CYP2C8 | – | human liver microsomes | 10 and 50 µM, 30 min preincubation, pH 7.4, together with: ± NADPH | – | time-dependent inhibition | < 20% |
| O=C(CCl)N1N=C(c2cccc(F)c2)CC1c1cccs1 (centres unmarked) | UCHL1 | covalent, intact protein LC-MS | – | 12.5 µM | – | labelling | 19.7% |
| Cc1cc(C)c(CNC(=O)c2cc(Cl)c3c(c2C)O[C@@](C)([C@H]2CC[C@H](N(C)C)CC2)O3)c(=O)[nH]1 | CYP2C8 | – | recombinant human CYP2C8 | 0 and 30 min | – | CLint | 0.0529 µL/min/pmol |
| CN(C(=O)n1cnc(-c2ccc[n+]([O-])c2)c1)C1CCCCC1 | CYP2C8 | enzyme activity, inhibitor | pooled human liver microsomes | 0.1 to 30 µg/mL | – | inhibition | no effect |
| CCOc1cc(CC(=O)N[C@@H](CC(C)C)c2ccccc2N2CCCCC2)ccc1C(=O)O | CYP2C8 | substrate | human, plasma | 0.5 mg, day 1 | – | geometric mean AUC(0-last) | 10.5 ng·h/mL |
| CSc1ccc(OCc2ncc([N+](=O)[O-])n2C)cc1 | Trypanosoma cruzi | reporter translation, Renilla luciferase mRNA translation | cell-free extract | 40 µM | baseline: DMSO | inhibition | 1.8% |
| COc1cc(O)c(CC=C(C)C)c2c1C(=O)CC(c1ccc(O)cc1)O2 (centres unmarked) | CYP2C8 | enzyme activity, inhibitor | human liver microsomes | 1 µM, pH 7.4, together with: amodiaquine | – | inhibition | 87.7 ± 1.1% |
